Published values of several laboratories.
Lines come from different studies, so protocols differ. Values joined by “and” are separate records of one study, mostly repeats; a detail may differ. ± gives the spread as reported.

SMILES | cell line | test | setting | scale | endpoint | value
COc1cc(Nc2ncc3c(n2)-c2ccc(Cl)cc2C(c2c(F)cccc2OC)=NC3)ccc1C(=O)O | HD-MB03 | cell growth | 168 h, single agent |  | IC50 | 29.7 nM
CCCCc1nc(Cl)c(CO)n1Cc1ccc(-c2ccccc2-c2nn[nH]n2)cc1 | human PBMC | RNA-seq, refers to: CPED1 mRNA | 10 µg/mL, 24 h | relative to: untreated control | log2 fold change | -2.6
CNC[C@H](O)c1cccc(O)c1 | COS-7, untransfected |  | 500 µM, relative to vehicle, unit not given | relative to: 3 µM ionomycin response | Ca2+ mobilisation | 2.06 ± 0.54
Nc1cccc2c1C(=O)N(C1CCC(=O)NC1=O)C2=O (stereo not drawn) | MM1.S | XTT | 1.4 µM |  | viability | 28% and 16% and 29%
COc1ccc(Oc2ccc(CN(C)Cc3cnc4nc(N)nc(N)c4n3)cc2)cc1 | 786-O | high-content imaging, refers to: MitoTracker Red uptake | 10 µM |  | mitochondrial toxicity | 0.89 ± 17.6%
COc1cc(/C=C/C(=O)N2CCC=CC2=O)cc(OC)c1OC | MDA-MB-468 | quantitative RT-PCR, refers to: Caspase6 | 30 µM, 8 h | relative to: untreated | mRNA level | 82.1 ± 1.6%
C=CCn1c(=O)c2cnc(Nc3ccc(N4CCN(C)CC4)cc3)nc2n1-c1ccc2c(n1)[C@@](O)(CC)CC2 | MDA-MB-231 | flow cytometry | concentration not given |  | cells in G1 phase among γH2AX-positive cells | 8.8%
CCCCc1oc2ccc(NS(C)(=O)=O)cc2c1C(=O)c1ccc(OCCCN(CCCC)CCCC)cc1 | human embryonic stem cell aggregates | mRNA level, microarray, refers to: NTN4 | 0.5 µM, 120 h | relative to: untreated, up-regulated | fold change | 2 fold
CCN(c1cc(-c2ccc(CN3CCOCC3)cc2)cc(C(=O)NCc2c(C)cc(C)[nH]c2=O)c1C)C1CCOCC1 | HD-MB03 |  | 168 h |  | IC50 | inactive
COc1cnc2cccc(N3CCc4c(cc(Cn5ccnc5C)cc4-c4cn(C)nc4C(F)(F)F)C3=O)c2c1 | COLO 201 | cell growth, inhibitor | 120 h |  | EC50 | 772 nM
Cc1nc(NC(=O)N2CCC[C@H]2C(N)=O)sc1-c1ccnc(C(C)(C)C(F)(F)F)c1 | NCI-H1048 | cell growth, CellTiter-Glo | 120 h |  | Hill coefficient GR curve | 1.21
Cc1cc(C)n(C(=S)[S][Au][PH](CCCCCC[PH]([Au][S]C(=S)n2nc(C)cc2C)(c2ccccc2)c2ccccc2)(c2ccccc2)c2ccccc2)n1 | 786-O | cell growth, NCI-60 screen | renal cancer |  | log TGI | > -4 log10 M
CC(=O)O[C@H]1C(=O)[C@@]2(C)[C@H]([C@H](OC(=O)c3ccccc3)[C@]3(O)C[C@H](OC(=O)[C@H](O)[C@@H](NC(=O)c4ccccc4)c4ccccc4)C(C)=C1C3(C)C)[C@]1(OC(C)=O)CO[C@@H]1C[C@@H]2O | CHP-212 resistant sublines, USP7 V517F heterozygous |  | 0.004572 µM |  | viability | 95.9%
Sc1ncnc2nc[nH]c12 | HL-60 | radioactive counts | 0.5 µM, 14C-labelled compound | higher = more incorporation | DNA radioactivity | 94.3 a.u.
CC(C)NCC(O)c1ccc(O)c(O)c1 (stereo not drawn) | mouse ventricular cardiomyocytes |  | dose not given, 0.375 s |  | sarcomere length | 1.8 µm
CCn1cc(-c2cc(Cn3ccnc3)cc3c2CCN([C@H](c2cc(OC)ccn2)C2CC2)C3=O)c(C(F)(F)F)n1 | COLO 201 | cell growth, inhibitor | 120 h |  | EC50 | > 30000 nM
Cc1cc(NS(=O)(=O)c2ccc(NC(=O)/C(C#N)=C/c3ccc(N4CCCCC4)cc3)cc2)no1 | HCT-116 | wound healing | IC50, 4-24 h | relative to: untreated | cell migration | decreased
Cc1c(-c2c(-c3ccc(F)o3)sc3ncnc(O[C@H](Cc4ccccc4OCc4ccnn4CC(F)(F)F)C(=O)O)c23)ccc(OCCN2CCN(C)CC2)c1Cl | HD-MB03 | cell growth | single agent |  | IC50 | 916 nM
Cn1cc(-c2ccc(-c3cncc(Cl)c3N3CCC4(CCNC4=O)CC3)cc2)cn1 | COLO 205 | gene expression, microarray, refers to: AOC3 mRNA | concentration not given, 6 h | relative to: untreated cells | log2 fold change | 1.38
CCn1cc(-c2cc(Cn3ccoc3=N)cc3c2CCN([C@@H](C)c2cc(OC)ccn2)C3=O)c(C(F)(F)F)n1 | NCI-H661 | cell growth, inhibitor | 120 h |  | EC50 | 18 nM
CC(=O)c1c(C)c2cnc(Nc3ccc(N4CCNCC4)cn3)nc2n(C2CCCC2)c1=O | HD-MB03 | cell growth | 168 h, single agent |  | IC50 | 1970 nM
